Experimental data from different studies.
A part holds a random share of what one study measured. Positions count from the first letter of the parent shown.

Sample 1
Target: CCNA2, cyclin fold, Cln2 fusion (human)
Technique: yeast growth competition, sequencing
Matrix: yeast
Notes: strong parent motif
Baseline: not given
Reading: higher = stronger binding
Endpoint: normalised enrichment score
Starting sequence: E2F1 docking peptide (human); PPVKRRLDFETDH
Variant = K4Q; value = 5.58
Variant = R6W; value = 4.4
Variant = R6K; value = 5.79
Variant = D12I; value = 6.14
Variant = T11C; value = 5.81

Sample 2
Target: Histone acetyltransferase KAT6A, winged helix 1, GST fusion (KAT6A, Homo sapiens, UniProt Q92794, residues 1-85)
Technique: protein binding microarray
Molecule type: double-stranded DNA, one strand shown
Matrix: in vitro
Concentration: not given
Notes: 8-mer, flanks averaged, mean of 2 arrays, mostly near background
Baseline: not given
Reading: higher = stronger binding
Endpoint: E-score
Residues (chain): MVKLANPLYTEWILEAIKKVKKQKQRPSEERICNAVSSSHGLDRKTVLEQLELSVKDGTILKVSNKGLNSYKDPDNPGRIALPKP
Oligonucleotide = ACAGCCCG; value = 0.122
Oligonucleotide = CGGGCACA; value = 0.0118
Oligonucleotide = AGTTGGGA; value = -0.173
Oligonucleotide = TGGGTTAA; value = -0.21
Oligonucleotide = TCCACGAA; value = 0.0694
Oligonucleotide = GCCTACGC; value = 0.147
Oligonucleotide = ACGGAAAA; value = 0.138
Oligonucleotide = ACCAGTAT; value = -0.12
Oligonucleotide = AGAACCCT; value = -0.0551

Sample 3
Target: RING finger protein unkempt homolog, zinc fingers 1-6, GST-SBP tag (UNK, Homo sapiens, UniProt Q9C0B0, residues 30-357)
Technique: RNA Bind-n-Seq
Molecule type: RNA
Matrix: in vitro
Concentration: not given
Notes: RNA with constant flanks, human-mouse chimeric sites, ends assumed
Baseline: input RNA pool
Reading: higher = stronger binding
Endpoint: bound/input enrichment
Constant ends, left off below: GGGAGUUCUACAGUCCGACGAUC … CAACAGAGGAUUGAGCAUCA
Residues (chain): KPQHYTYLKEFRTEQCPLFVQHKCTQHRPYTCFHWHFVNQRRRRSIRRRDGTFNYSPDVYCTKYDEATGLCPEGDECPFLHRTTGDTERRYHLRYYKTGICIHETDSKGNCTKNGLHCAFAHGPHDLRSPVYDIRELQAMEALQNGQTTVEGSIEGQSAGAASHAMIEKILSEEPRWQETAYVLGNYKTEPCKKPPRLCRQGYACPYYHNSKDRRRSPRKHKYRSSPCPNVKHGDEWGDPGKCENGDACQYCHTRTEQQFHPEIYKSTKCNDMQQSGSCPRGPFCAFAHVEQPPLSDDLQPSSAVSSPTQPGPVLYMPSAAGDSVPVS
Oligonucleotide = AGGAGGAGGUUAAAGGGUGAAAAUGGGGUGGAAGACUGUGUCAUGGCUCUGGAGACAUUGUUUAGUGUCCUGCUUUCUCUGUGCAGACUGAUGGCCCCUUACACGCCCUUUCUGACUGAG; value = 0.0869 ratio
Oligonucleotide = GGGGAGAAACCUUAUGAGUGUGUGCAGUGUGGGAAAUCCUACAGUCAGAGCUCAAACCUUUUUAGACAUCAGAGACGACACAAUGCAGAAAAACUUUUGAAUGUUGUGAAGGUUUAAGAA; value = 0.255 ratio
Oligonucleotide = AAAGCCCAAGUAUUUUGAAAAAACUCGAACAGAUUUAACAAGGGUAGCCAGCUUGGAGUCUAGCAACUUGCCAAUGUGUUUACCAAUCUGGGGGCUUGUUUUUCUUUUCUUCUUUCAAAU; value = 0.314 ratio
Oligonucleotide = AUUCCGAUUAUGGACACCGGUGAAAACCCAGAGGUUCCCUUCCCUCGGGACAUGAUUGACUUAGAGGCCAAUUUUGAGAAGAUUGAAAAUGAACUGAAGGAAAUCAACACAAACCAGGAA; value = 0.149 ratio
Oligonucleotide = GUCAACAGUUGUCUCAACCCCAUCCUCUACGCCUUCCUGGAUGAGAACUUCAAGGCCUGCUUCCGCAAGUUCUGCUGUGCAUCUGCCCUGCACCGGGACGUGCAGGUGUCUGACCGCGUG; value = 0.409 ratio
Oligonucleotide = CUGGCACUGUAUCAGAUAUAUUAAUUUUUUAAUGUAGAUGUAAUUUUAAAAAUGAAUGGCUAGUUUACACGUUUAACUAGGGUUUUACUAUAUAUGUGUACAUAUGUAUAUAUAUAUAUA; value = 5.28 ratio
Oligonucleotide = GCGGCAGAAUCAUGGAGGACAUAAUGCAGCUCCCCAAAGCGCGCGUCAACGCCAGCAUGCUAGCUCAGUAUAUCGACCGGCCCGUGUGCUUCGUGGGGAAGCUGGAAAAGAUUCAUCCCA; value = 0.085 ratio

Mixed results
Substance = PhoQ, residues 284 288 289 292 302 303 ALVSVA; target = PhoP, residues 12 14 15 18 19 SGWQI (Escherichia coli, UniProt P23836); test = Sort-seq, refers to: YFP reporter; system = E. coli; conditions = PhoQ-PhoP variant library, together with: 10 µM Mg2+; how to read = baseline: high Mg2+ state, higher = stronger signaling; endpoint = fold induction; value = 1.8

For quick reference, copied from above (sample 1):
Variant = R6K; value = 5.79
Variant = K4Q; value = 5.58
Variant = D12I; value = 6.14
